# Measurements collected from several papers.
# Protocols differ between the studies behind these lines. ± gives the spread as reported.
SMILES,test,test system,conditions,scale,quantity,result
C[C@@H](c1ncncc1F)[C@](O)(Cn1cncn1)c1ccc(F)cc1F,,"patients, hematological disorders, CYP2C19 poor metabolizers, plasma","200 mg, 12 h, steady state, median",,trough concentration,4310 ng/mL
CCC(=O)O[C@]1(C(=O)SCF)[C@H](C)C[C@H]2[C@@H]3C[C@H](F)C4=CC(=O)C=C[C@]4(C)[C@@]3(F)[C@@H](O)C[C@@]21C,,rat,"intravenous, 90 nmol/kg",,blood clearance,192 mL/min/kg
CCCC[C@H](NC(C)=O)C(=O)N[C@H]1CCC(=O)NC[C@@H](C(=O)N[C@@H](Cc2c[nH]c3ccccc23)C(N)=O)NC(=O)[C@H](CCCNC(=N)N)NC(=O)[C@@H](Cc2ccccc2)NC(=O)[C@H](Cc2c[nH]cn2)NC1=O,,"CD Sprague Dawley rat, male, plasma","subcutaneous, 5.0 mg/kg daily, day 1",,Vd/F,9.78 L/kg
CN[C@@H]1[C@H](O)[C@H](NC)[C@H]2O[C@]3(O)[C@H](O[C@@H]2[C@H]1O)O[C@H](C)C[C@H]3NC(=O)Cc1cc(Cl)c(F)cn1,glutathione conjugation,human liver S9,"100 µM, 2 h, pH 7.4, with: glutathione 0.2 mM",,parent remaining,98.6%
Cn1cc(-c2ccc3nnc(Sc4ccc5ncccc5c4)n3n2)cn1,,"CD-1 mouse liver S9, male","1 µM, with: hydralazine 50 µM, no NADPH",,CLint,16.5 ± 4.03 mL/min/kg
CC(C)(Sc1ccncc1-c1ccc(C#N)c2ccccc12)C(=O)O,,"non-Asian male subjects, plasma","oral, 10 mg, multiple doses, fed, geometric least squares mean",,AUC(0-24),141 ng·h/mL
CC#CCn1c(N2CCC[C@@H](N)C2)nc2c1c(=O)n(Cc1nc(C)c3ccccc3n1)c(=O)n2C,,"male ICR mouse, plasma","oral, 3 mg/kg, 24 h",,AUC,2430 ng·h/mL
O=C(O)Cc1ccccc1Nc1c(Cl)cccc1Cl,,"rat, plasma","oral, 10 mg/kg, with: sesamin 10 mg/kg",,AUC(0-24 h),9050 ± 3420 ng·h/mL
CCCCCCCCCCCCCNCC(=O)N(CC(=O)N(CCCCN)CC(=O)N(CCN)CC(=O)N(CC(N)=O)Cc1ccccc1)Cc1ccccc1,preparative RP-HPLC C18,water to acetonitrile gradient,0.05% TFA in eluent,higher = more hydrophobic,acetonitrile at elution,66.9%
CCCOc1ccc([C@H]2CNC(=O)N2c2ccc3[nH]cnc3c2)cc1,,"human volunteers fasted, plasma","oral solution, 400 mg single dose, day 1, geometric mean",,AUC(0-tlast),3540 ng·h/mL
C[C@H](O)[C@@H](NC(=O)[C@@H](Cc1c[nH]c2ccccc12)NC(=O)[C@@H](CCC(=O)O)NC(=O)CNC(=O)[C@@H](CCCCN)NC(=O)[C@H](N)Cc1c[nH]c2ccccc12)C(=O)NCC(=O)N[C@H](CCCNC(=N)N)C(=O)NCCC(=O)NCCCC[C@H](NC(=O)CCNC(=O)[C@@H](CCCNC(=N)N)NC(=O)CNC(=O)[C@H](NC(=O)[C@@H](Cc1c[nH]c2ccccc12)NC(=O)[C@@H](CCC(=O)O)NC(=O)CNC(=O)[C@@H](CCCCN)NC(=O)[C@H](N)Cc1c[nH]c2ccccc12)[C@H](C)O)C(=O)NCCCC[C@H](NC(=O)[C@H](CCCCNC(=O)CCNC(=O)[C@@H](CCCNC(=N)N)NC(=O)CNC(=O)[C@H](NC(=O)[C@@H](Cc1c[nH]c2ccccc12)NC(=O)[C@@H](CCC(=O)O)NC(=O)CNC(=O)[C@@H](CCCCN)NC(=O)[C@H](N)Cc1c[nH]c2ccccc12)[C@H](C)O)NC(=O)CCNC(=O)[C@@H](CCCNC(=N)N)NC(=O)CNC(=O)[C@H](NC(=O)[C@@H](Cc1c[nH]c2ccccc12)NC(=O)[C@@H](CCC(=O)O)NC(=O)CNC(=O)[C@@H](CCCCN)NC(=O)[C@H](N)Cc1c[nH]c2ccccc12)[C@H](C)O)C(=O)N[C@@H](CS)C(=O)O,ELISA,"BALB/c mouse, plasma","sc, 200 µg",,time detected in plasma,4 h
CC(=O)N[C@H](CSSC[C@H](N)C(=O)O)C(=O)N[C@H](C)C(=O)N[C@H](CCCNC(=N)N)C(=O)N[C@H](CCCNC(=N)N)C(=O)N[C@H](CCCNC(=N)N)C(=O)N[C@H](C)C(=O)N[C@H](CCCNC(=N)N)C(N)=O,,human whole blood,"37 °C, to biotransformed products",,disulfide exchange rate constant,0.00525 min⁻¹
CC1(C)C2CC[C@@]1(C)C(=O)/C2=C/c1cc2ccccc2o1,,human red blood cells,"10 to 300 µg/mL, 30 min",,maximum hemolysis,< 14%
CC(C)[C@H](NC(=O)[C@@H]1CCCN1C(=O)[C@H](CCCNC(=N)N)NC(=O)[C@H](CS)NC(=O)[C@H](Cc1c[nH]c2ccccc12)NC(=O)[C@H](CCCNC(=N)N)NC(=O)[C@@H](Cc1ccccc1)NC(=O)[C@H](Cc1c[nH]cn1)NC(=O)[C@H](CCC(=O)O)NC(=O)[C@H](CS)NC(=O)[C@H](CS)NC(=O)[C@H](CCCCN)NC(=O)[C@@H]1CC(=O)N[C@@H](CCCNC(=N)N)C(=O)N[C@@H](C(C)C)C(=O)N[C@@H](CC(=O)O)C(=O)N[C@H](Cc2ccc(O)cc2)C(=O)N1)C(N)=O [technetium-99m labelled],,"female C57 mouse, B16/F1 melanoma, urine","intravenous, dose not given, 2 h, with: NDP-MSH 10 µg co-injected",,urinary excretion,76.1 ± 3.55%
C[N+]1(CC(=O)OC2CCCCCCC2)CCCCC1.[I-],,phosphate buffer with 2% DMSO,"90 min, pH 7.4, theoretical maximum 200 µM",,aqueous solubility,182 µM
CC1(C)CCc2c(-c3ccc(O[11CH3])cc3F)cc(C(N)=O)nc2O1,,"female cynomolgus monkey, arterial plasma",blocking condition,,unbound fraction,0.099 ± 0.011
CS(=O)(=O)Nc1ccc(C(=O)O[C@@H](Cc2c(Cl)c[n+]([O-])cc2Cl)c2ccc(OC(F)F)c(OCC3CC3)c2)cc1OCC1CC1,,"human, plasma","inhaled, 100 µg single dose, single-dose dry powder inhaler",,tmax,1.74 h
C[C@]12CC[C@@H]3c4ccc(O)cc4CC[C@H]3[C@@H]1C[C@@H](O)[C@@H]2O,GC-MS,"breast cancer women on NSAI, serum","vaginal, 0.03 mg daily, 8 h, day 28",,mean serum concentration,0.0102 ng/mL
Cc1nc(-c2ccc(OCC(C)C)c(C#N)c2)sc1C(=O)O,,"adults with gout, plasma","oral, 40 mg, with: verinurad 5 mg",,AUC(0-24),2500 ng·h/mL
CC[C@H](C)[C@H](NC(=O)[C@H](CCC(N)=O)NC(=O)[C@H](Cc1c[nH]cn1)NC(=O)[C@H](C)NC(=O)[C@H](CC(C)C)NC(=O)[C@H](CCCCN)NC(=O)[C@H](CCC(N)=O)NC(=O)[C@@H](NC(=O)[C@@H](NC(=O)[C@@H]1CSSC[C@H](NC(=O)CNC(=O)[C@H](Cc2ccccc2)NC(=O)[C@H](CO)NC(=O)[C@H](CCCNC(=N)N)NC(=O)[C@H](CC(C)C)NC(=O)CNC(=O)[C@H](CCC(N)=O)NC(=O)[C@H](Cc2ccccc2)NC(=O)[C@H](CC(N)=O)NC(=O)[C@H](CC(N)=O)NC(=O)[C@H](CCSC)NC(=O)[C@H](CO)NC(=O)[C@H](CCC(N)=O)NC(=O)[C@H](CCCNC(=N)N)NC(=O)[C@@H](N)Cc2ccc(O)cc2)C(=O)N[C@@H](CCCNC(=N)N)C(=O)N[C@@H](Cc2ccccc2)C(=O)NCC(=O)N[C@@H]([C@@H](C)O)C(=O)N1)[C@@H](C)O)C(C)C)C(=O)N[C@@H](Cc1ccc(O)cc1)C(=O)N[C@@H](CCC(N)=O)C(=O)N[C@@H](Cc1ccccc1)C(=O)N[C@H](C(=O)N[C@@H](CC(=O)O)C(=O)N[C@@H](CCCCN)C(=O)N[C@@H](CC(=O)O)C(=O)N[C@@H](CCCCN)C(=O)N[C@@H](CC(=O)O)C(=O)N[C@@H](CC(N)=O)C(=O)N[C@H](C(=O)N[C@@H](C)C(=O)N1CCC[C@H]1C(=O)N[C@@H](CCCNC(=N)N)C(=O)N[C@@H](CO)C(=O)N[C@@H](CCCCN)C(=O)N[C@H](C(=O)N[C@@H](CO)C(=O)N1CCC[C@H]1C(=O)N[C@@H](CCC(N)=O)C(=O)NCC(=O)N[C@@H](Cc1ccc(O)cc1)C(N)=O)[C@@H](C)CC)C(C)C)[C@@H](C)O,,"human, male, plasma","intravenous infusion, 15 ng/kg/min daily, 7 days, day 1",,AUC(0-10h),0.272 ± 0.0573 ng·h/mL
CCOc1c([C@H](C)n2nc(C)c3c(N)ncnc32)cc(Cl)c(F)c1[C@@H]1CNC(=O)C1,,"healthy fasted humans, plasma","oral, 10 mg",,AUC(0-t) geometric mean,7.27 µM·h
Cc1nc2cccc(OCC(C)(C)C(=O)NC(C)C)c2c(N)c1C(=O)O,,"female Sprague-Dawley rat, plasma","oral, 100 mg/kg, single dose",,half-life,0.99 h
Cn1c(-c2ccc(C(N)=O)cc2F)nnc1C(C)(C)Oc1c(F)cc(Cl)cc1F,,"healthy young Japanese subjects, plasma","oral, 20 mg once daily, day 18, 14 days dosing",,half-life mean,30 h
CNC(=O)c1cc(Oc2ccc(NC(=O)Nc3ccc(Cl)c(C(F)(F)F)c3)cc2)ccn1,echocardiography,human,"oral, 400 mg twice daily, 39 days",,LVEF,25%
C=CC(=O)Nc1cc(Nc2nccc(-c3cn(C)c4ccccc34)n2)c(OC)cc1N(C)CCN(C)C,,"Sprague-Dawley rat, male, plasma","oral, 10 mg/kg",,MRT(0-t),8.04 ± 1.1 h
O=C(/C=C/c1ccc(O)c2c1[C@H](C(=O)O)[C@@H](c1ccc(O)c(O)c1)O2)O[C@H](Cc1ccc(O)c(O)c1)C(=O)O,UPLC-MS/MS,"Wistar rat, microcirculation dysfunction model, plasma","oral, 100 mg/kg Salvia miltiorrhiza stem-leaf extract FT",,MRT(0-inf),10.7 ± 9.75 h
O=C1Nc2ccccc2C(=O)CCc2ccc(F)cc21,nephelometry,aqueous buffer,"30 min, pH 6.5",,kinetic solubility,> 100 µg/mL
C/C=C/C[C@@H](C)C(=O)[C@H]1C(=O)N[C@@H](C(C)C)C(=O)N(C)CC(=O)N(C)[C@@H](CC(C)C)C(=O)N[C@@H](C(C)C)C(=O)N(C)[C@@H](CC(C)C)C(=O)N[C@@H](C)C(=O)N[C@H](C)C(=O)N(C)[C@@H](CC(C)C)C(=O)N(C)[C@@H](CC(C)C)C(=O)N(C)[C@@H](C(C)C)C(=O)N1C,,"Sprague Dawley rat, plasma","multiple intravenous bolus, dose not given, 4 h, minimal efficacious dose",,free steady-state plasma concentration,411 nM
O=C1NC(=O)[C@@H](c2cn3c4c(cccc24)CCC3)[C@@H]1c1c[nH]c2ccccc12,,"human, plasma","oral, 240 mg, steady state, with: topotecan intravenous",,AUC(0-12h),8910 ng·h/mL
CN[C@H](CC(C)C)C(=O)N[C@H]1C(=O)N[C@@H](CC(N)=O)C(=O)N[C@H]2C(=O)N[C@H]3C(=O)N[C@H](C(=O)N[C@H](C(=O)O)c4cc(O)cc(O)c4-c4cc3ccc4O)[C@H](O)c3ccc(c(Cl)c3)Oc3cc2cc(c3O[C@@H]2O[C@H](CO)[C@@H](O)[C@H](O)[C@H]2O[C@H]2C[C@](C)(N)[C@H](O)[C@H](C)O2)Oc2ccc(cc2Cl)[C@H]1O,microdialysis,"pig (Danish Landrace), cancellous bone","iv infusion, 1000 mg over 100 min, MIC 2.0 µg/mL, with: meropenem co-administered",,time above MIC,379 min
C=C(C)[C@@H]1CC[C@]2(NCCN3CCS(=O)(=O)CC3)CC[C@]3(C)[C@H](CC[C@@H]4[C@@]5(C)CC=C(C6=CC[C@@](CF)(C(=O)O)CC6)C(C)(C)[C@@H]5CC[C@]43C)[C@@H]12,LC-MS/MS,"HIV-1-infected treatment-naive adults, plasma","oral, 80 mg once daily, day 7, monotherapy",,trough concentration,360 ng/mL
C=CC(N)CCC(=O)O (stereo not shown),,"male Sprague-Dawley rat, plasma","oral, 10 mg/kg, formulation 9, with: low-fat infant formula 1500 mg/kg",,AUC(0-inf),16500 ± 267 ng·h/mL
CCOc1ccc(Cc2cc([C@@H]3S[C@H](CO)[C@@H](O)[C@H](O)[C@H]3O)c(OC)cc2C)cc1,,"human, plasma","oral, 10 mg/day, day 1, multiple dose before breakfast",,elimination rate constant,2.12e-05 ± 1.88e-06 s⁻¹
O=C1Nc2ccc(S(F)(F)(F)(F)F)cc2C(=O)CCc2ccccc21,nephelometry,aqueous buffer,"30 min, pH 6.5",,kinetic solubility,≤ 12.5 µg/mL

# A few entries again:
SMILES,test,test system,conditions,scale,quantity,result
CN[C@@H]1[C@H](O)[C@H](NC)[C@H]2O[C@]3(O)[C@H](O[C@@H]2[C@H]1O)O[C@H](C)C[C@H]3NC(=O)Cc1cc(Cl)c(F)cn1,glutathione conjugation,human liver S9,"100 µM, 2 h, pH 7.4, with: glutathione 0.2 mM",,parent remaining,98.6%
Cn1cc(-c2ccc3nnc(Sc4ccc5ncccc5c4)n3n2)cn1,,"CD-1 mouse liver S9, male","1 µM, with: hydralazine 50 µM, no NADPH",,CLint,16.5 ± 4.03 mL/min/kg
CC(C)(Sc1ccncc1-c1ccc(C#N)c2ccccc12)C(=O)O,,"non-Asian male subjects, plasma","oral, 10 mg, multiple doses, fed, geometric least squares mean",,AUC(0-24),141 ng·h/mL
